Experimental data gathered from unrelated publications.
Compare with care: the assays were run in different laboratories. ± marks the error that the study gave.

| Compound | target or system | test | test system | conditions | how to read | quantity | value |
| --- | --- | --- | --- | --- | --- | --- | --- |
| Nc1ncc(-c2cc(-c3cnn(CC(F)(F)F)c3)ncc2F)nc1C(=O)NC1CNCC(F)C1 (stereo not shown) | CTK | KINOMEscan competition binding | – | 1 µM | reference: DMSO control | remaining binding | 56% |
| Cc1ncsc1-c1ccc(C(C)NC(=O)C2CC(O)CN2C(=O)C(NC(=O)CCCCCCCCCCN2CCCC(Nc3ncc(Cl)c(Nc4ccccc4S(=O)(=O)C(C)C)n3)C2)C(C)(C)C)cc1 (stereo not shown) | 22Rv1 | RNA-seq, refers to: ZNF888 mRNA | – | concentration not given | reference: DMSO | log2 fold change | -1.14 |
| COc1ccc(C(=O)CCc2cc(C(CCc3ccc(O)cc3OC)c3ccc(O)cc3)c(O)cc2OC)cc1 (racemic) | – | – | human blood | 10 µM, added: A23187 | – | 4-HDHA level | 27 ± 3 pg/mL |
| CN1CCCNC(=O)c2cccc(c2)C(=O)NCCCN(C)CCCNc2cccc3c2C(=O)c2cccc(c2C3=O)NCCC1 | SAS | RNA-Seq, refers to: KPNA4 mRNA | – | 1 µM, 6 h | reference: untreated cells | log2 fold change | -1.41 |
| CC(=O)[O-].O.O.O.O.[Ni+2].[O-]c1ccc(Br)cc1C=NCCN1CCOCC1 | – | superoxide scavenging | – | 200 µM | – | inhibition | 52.5% |
| CN1CCC[C@]1(C)/C=C/S(=O)(=O)NC(=O)Nc1c2c(cc3c1CCC3)CCC2 | – | – | human, whole blood ex vivo | 50 mg twice daily, day 14, 3 h, multiple ascending dose, added: LPS and ATP | – | IL-18 inhibition | 97.2% |
| C=C(NC(=O)c1csc(-c2nc3c(cc2O)-c2nc(cs2)C(=O)NC(C(C)O)C(=O)NC(=C(C)OC)c2nc(cs2)C(=O)NC2c4nc(cs4)C(=O)NC(COC(=O)c4c5c6c(cccc6n4O)COC(=O)C(OC4CC(C)(O)C(N(C)C)C(C)O4)C2OC5)c2nc-3cs2)n1)C(N)=O (stereo not shown) | Streptococcus pneumoniae | – | -4, immunocompromised mice, lung | 32 mg/kg/day thrice daily, 24 h post-dose | – | lung bacterial load | 3.7 log10 CFU/lung |
| CCN(CC)CC(=O)Nc1cccc(-n2cc(-c3ccc4ccc(-c5cn(-c6cccc(NC(=O)CN(CC)CC)c6)nn5)cc4c3)nn2)c1 | RCC4 | PCR angiogenesis array, refers to: CCL2 | – | 5 x IC50, 4 h, normoxia | reference: untreated | fold regulation | -1.04 |
| C=CC(=O)N1[C@@H](c2ccc3c(c2)OCO3)c2[nH]c3ccccc3c2C[C@H]1C(=O)N1CCN(C)CC1 | CCNE1 WT-3xFLAG:CDK2 complex | co-IP TMT proteomics, refers to: KPNA2 | HEK-293T | 20 µM, 6 h | reference: DMSO | log2 fold change | -0.23 |
| C=CC(=O)Nc1cccc(Cn2ncc3cnc(Nc4cnn(CCOC)c4)nc32)c1 | MARK2 human | binding, KINOMEscan | – | 100 nM | lower = stronger binding | percent of control | 100% |
| CNS(=O)(=O)Nc1nccc(Cc2c(C)c3ccc(Oc4ncccc4F)cc3oc2=O)c1F | NB-4 | cell viability | – | 7 days | – | IC50 | 2.2 nM |
| COc1cc(O)ccc1CCC(c1ccc(O)cc1)c1cc2c(c(C)c1O)OC(c1ccc(O)cc1)CC2 (mixture of isomers) | – | – | human blood | 1 µM, added: A23187 | – | 4-HDHA level | 24 ± 6 pg/mL |
| COC1CN([C@H]2CC[C@H]([C@@]3(C)Oc4c(Cl)cc(C(=O)NCc5c(SC)cc(C)[nH]c5=O)c(C)c4O3)CC2)C1 | – | RNA-seq, refers to: FNBP1L mouse homolog | mouse, HT-1376 xenograft, whole blood | dose not given | reference: vehicle | log2 fold change | 2.62 |
